Results collected from several papers.
Numbered parts are unrelated; each lists some results of a single study. Positions count from the first letter of the parent shown.

Set 1
Target: HLF, bZIP domain (human)
Method: DHFR protein complementation
Matrix: yeast
Notes: single substitutions, most at no-binding floor
Relative to: wild-type JUN-FOS pair
Direction: higher = stronger binding
Endpoint: binding fitness
Starting sequence: JUN, bZIP domain (human); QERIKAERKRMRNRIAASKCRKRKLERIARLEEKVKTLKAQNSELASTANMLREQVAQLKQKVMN; partner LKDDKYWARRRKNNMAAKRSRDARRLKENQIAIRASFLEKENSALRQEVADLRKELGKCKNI
A57M: -1.5 natural log
M51Q: -1.38 natural log
A40H: -1.35 natural log
I28N: -1.45 natural log
A40W: -1.44 natural log
L38E: -1.47 natural log
R30W: -1.37 natural log
I28T: -1.48 natural log
K36P: -1.48 natural log
I28R: -1.33 natural log
T37Q: -1.34 natural log
K39E: -0.996 natural log
Q41N: -1.39 natural log
R53M: -1.43 natural log
S43C: -1.41 natural log
N42T: -1.46 natural log
K36E: -1.41 natural log
K36I: -1.26 natural log

Set 2
Target: RING finger protein unkempt homolog, zinc fingers 1-6, GST-SBP tag (UNK, Homo sapiens, UniProt Q9C0B0, residues 30-357)
UniProt Q9C0B0, sequence (30-357, looked up): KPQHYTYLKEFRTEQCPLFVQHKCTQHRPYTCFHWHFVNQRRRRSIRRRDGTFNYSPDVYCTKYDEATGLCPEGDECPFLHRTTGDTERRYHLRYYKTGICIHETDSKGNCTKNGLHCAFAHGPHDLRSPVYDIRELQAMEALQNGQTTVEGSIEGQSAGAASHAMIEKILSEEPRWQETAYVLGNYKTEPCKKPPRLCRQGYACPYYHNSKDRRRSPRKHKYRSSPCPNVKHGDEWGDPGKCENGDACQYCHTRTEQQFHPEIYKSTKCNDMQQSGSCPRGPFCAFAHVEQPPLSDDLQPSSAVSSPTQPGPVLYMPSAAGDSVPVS
Method: RNA Bind-n-Seq
Molecule type: RNA
Matrix: in vitro
Tested at: not given
Notes: RNA with constant flanks, human-mouse chimeric sites, ends assumed
Relative to: input RNA pool
Direction: higher = stronger binding
Endpoint: bound/input enrichment
Shared flanks, not repeated: GGGAGUUCUACAGUCCGACGAUC … CAACAGAGGAUUGAGCAUCA
GGGGAGAAACCUUACGAAUGCGUUCAGUGUGGGAAAUCGUAUAGUCAGAGCUCAAACCUCUUCAGACAUCAGAGACGACACAAUGCAGAAAAACUUUUGAAUGUUGUGAAGGUUUAAGAA: 0.511 ratio
CUGAAAAACACAGAUAUCAAAGUUGUUGACUUUGGAAGUGCAACGUAUGAUGAUGAACAUCACAGUACUUUGGUGUCUACCCGGCACUACAGGGCUCCAGAGGUCAUUUUGGCUUUAGGU: 0.288 ratio
UGUAGUUUCUUGAUUUAUCAUUUUUCUUGCUCGGGUUUUUCCUUUAGGAAAAGCCUAAAGAUUAGACUGUAAGAAAAACAGAAGCCAUGUUUCGAAGACCUGUGUUACAGGUAUUUCGUC: 0.15 ratio
GCAAAGGAUGAUGAGGCAGCUGCAGUUGCCCUUUCCUCUCUCGUUCAUGCUUUGGAUGACUUAGACAUGGUCGCCAUCGUCCGAUAUGCUUAUGACAAAAGAUCUAAUCCUCAAGUUGGU: 0.119 ratio
UACUCAACUUUCUUGCCACAUUUUGAAUUCCAAGACAUUAUUCCUCCAGAUGACUUUCUAACUAGUGAUGAAGAGCAAGAUUUGGUUUUAUUUGGAACUAUGAGAGGACAAGUUGUUGGA: 0.264 ratio
UCCCAAAUCCAGCAGCUAGAAGGAGCCUUGAGACAAACACUCCACACGCAGGGAGGGCGAUAACAUUGUAAAUUGGUUUACAUUUUUUCCCCCUGUGGAUUUUUCUAGAGGUCAUAGUGC: 0.417 ratio
CUGUGUGUGCUGAAUAAAUGGCUUGUAAGAACUGUCCUCCAAGCUGUAACCCAUGCUUCCCUUAGAGUUGCUGCAAAAUGUUCUUCCUGAUAUUGAUUUUAUUUGUUAACUGAAGGUCUC: 0.402 ratio
AAAGAACUACUGAGGCAAGGCAGCAAAUUUAGGAGAGAUGUAUCAACAAUAUUGAUAGAGUUAGGAUUCCAAAUUAAAAAGAAAACUAAGACAUUAUACAUCAACAAAGCCAAUGUGUGG: 5.09 ratio
AAAGCCCUUGAAGAAAAAAAAAACUCGAACAGAUUUGACAAGGGUAGCCAGCUUGGAGUCUAGCAACUUGCCAAUGUGUUUACCAAUCUGGGGGCUUGUUUUUCUUUCCCUUCCUUAAAU: 0.45 ratio
AAAGAACCUCUCUCUGAUGAAGAUGAGGAAGACAAUGAUGAUGUUGAACCUAUUACUGAAUUUCGAUUUGUGCCCAGUGAUAAGUCAGCAUUGGAGGCAAUGUUCACAGCAAUGUGUGAG: 0.235 ratio
UUUGUUUGUAACUUAUCUCUGUAAAAGUCCCCCCCCCACUGUCAAAAAAAUAUGCAUGUAUAGUAAUUAGGACUUCAUUCCUCCAUGUUUUCUUCCCUUAUCUUACUGUCAUUGUCCUUA: 1.46 ratio

Set 3
Target: Ras GTPase-activating protein-binding protein 1, full length (G3BP1, Homo sapiens, UniProt Q13283)
UniProt Q13283, sequence (whole entry, looked up): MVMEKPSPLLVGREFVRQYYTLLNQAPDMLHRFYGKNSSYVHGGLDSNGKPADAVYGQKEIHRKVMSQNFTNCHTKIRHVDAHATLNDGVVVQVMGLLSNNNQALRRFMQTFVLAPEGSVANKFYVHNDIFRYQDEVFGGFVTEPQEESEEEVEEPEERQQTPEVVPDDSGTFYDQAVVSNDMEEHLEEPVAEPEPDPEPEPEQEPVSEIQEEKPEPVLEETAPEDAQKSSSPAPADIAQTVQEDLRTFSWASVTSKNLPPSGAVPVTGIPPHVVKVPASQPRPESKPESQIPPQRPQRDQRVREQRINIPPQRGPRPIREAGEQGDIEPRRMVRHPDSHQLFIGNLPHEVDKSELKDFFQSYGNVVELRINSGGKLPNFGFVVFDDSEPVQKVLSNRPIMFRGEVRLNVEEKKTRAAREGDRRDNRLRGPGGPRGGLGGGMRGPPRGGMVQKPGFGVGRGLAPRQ
Method: RNA Bind-n-Seq
Molecule type: RNA
Matrix: in vitro
Tested at: 200 nM
Notes: whole 134-nt RNA, ends assumed
Together with: 150 mM KCl
Relative to: input library
Direction: higher = stronger binding
Endpoint: log2 enrichment
Shared flanks, not repeated: GGGAGUUCUACAGUCCGACGAUC … UGGAAUUCUCGGGUGUCAAGG
UCCUGUGCUACACAUCGUAUGUACCGAAUCGGGAAAAAAGGGAAAAAAGGGAAAAAAGGAAAGUAUUAUGUUACGCCGUUCGGAUCUGCA: -0.468
CCUGUGCUACACAUCGUAUGUACCGAAUCGGUUUUUUUGGGUUUUUUUGGGUUUUUUUGGAAAGUAUUAUGUUACGCCGUUCGGAUCUGC: -0.771
CCUCAAGUCCUGUGCUACACAUCGUAUGUACCGAAUCGGAGGGGAGGAGGGGAAAGUAUUAUGUUACGCCGUUCGGAUCUGCACUUCCAG: 0.443
ACCAUGCAGGUGGGCAUCUUUGGGAAGUGGGGCAAGGGGGGGAUAGGGAGGCGGGUAACACUUUGGGAACAGGUGGUCCCAGGUCGUUUC: 1.11
GGUGUUGCUGGAAGAAGCCAAGGAUUUGCUCUCUGACUGGCUGGAUUCUACACUUGGCUGUGAUGUCACUGACAAUUCCAUCUUCUCCAA: 0.518
CACAGACAACACGCACCCACACAGACACAGAGGGAAGGGGUUGGGAUGGGGACAGGGUGCACAGCAAAACGGGGUAGGACCCCAGCCCCU: 1.97
UGGCCCGCCGUCCUGAGGAAGCUGAGGUUCACUGCGGUGCCCAAGAACCACCAGGCGGUCCGGAACCCGUGAGCGGCUGCCAGGGGCUCU: 0.405
CAAGUCCUGUGCUACACAUCGUAUGUACCGAAUCGGGUUUUGGGUUUUGGUUUUGGAAAGUAUUAUGUUACGCCGUUCGGAUCUGCACUU: -1.04
AAGUCCUGUGCUACACAUCGUAUGUACCGAAUCGGAAAGGUUUUUUUGGAAAAAGGAAAGUAUUAUGUUACGCCGUUCGGAUCUGCACUU: -1.61
UCAAGUCCUGUGCUACACAUCGUAUGUACCGAAUCGGGCCCGGCCCGGCCCGGGAAAGUAUUAUGUUACGCCGUUCGGAUCUGCACUUCC: -0.666
UGGGAGGUGGAUUUUGUUUAUUUUUUUAGCUCAUUUCCAGGGGUGGGAAUUUUUUUUUCAUAUGUGUCAUGAAUAAAGUUGUUUUUGAAA: 0.0604
CCUGUGCUACACAUCGUAUGUACCGAAUCGGCCCCCCCGGGGCCCCCCCGGCCCCCCCGGAAAGUAUUAUGUUACGCCGUUCGGAUCUGC: -0.203
CCUGUGCUACACAUCGUAUGUACCGAAUCGUGUGUGUGUGUGUGUGUGUGUGUGUGUGUGUAAAGUAUUAUGUUACGCCGUUCGGAUCUG: 0.961
UCAAGUCCUGUGCUACACAUCGUAUGUACCGAAUCGGUUUUUGGAAAAAGGUGGAAAGUAUUAUGUUACGCCGUUCGGAUCUGCACUUCC: -0.749

Set 4
Target: ABI1, truncated, D143A, DHFR fusion (Arabidopsis thaliana)
Method: DHFR PCA, deep sequencing
Matrix: yeast
Notes: methotrexate growth selection, single substitutions
Together with: (+)-ABA 710 µM
Relative to: wild-type fitted maximum
Direction: higher = stronger binding
Endpoint: relative binding score
Starting sequence: PYL1, truncated, DHFR fusion (Arabidopsis thaliana); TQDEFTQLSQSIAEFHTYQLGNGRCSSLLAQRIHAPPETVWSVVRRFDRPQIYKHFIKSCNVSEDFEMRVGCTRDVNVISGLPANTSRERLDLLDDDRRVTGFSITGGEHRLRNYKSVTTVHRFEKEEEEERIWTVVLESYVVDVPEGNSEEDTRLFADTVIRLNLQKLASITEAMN
F157M: 98.4%
R123A: 108%
G21D: 99.8%
D3T: 110%
S104P: -5.41%
T73D: 92.6%
S150N: 98%
N85E: 99.8%
S59E: 104%
V145S: 79.8%
T73E: 105%
T154W: -11.1%
D48P: 57.4%
V44M: 81.8%

Set 5
Target: PABPC1L2, full length, GST fusion (mouse, UniProt A0ABA7IW68)
Method: RNAcompete
Molecule type: RNA
Matrix: in vitro
Tested at: 20 nM
Notes: 7-mer, probes averaged, single round
Relative to: mean of 7-mers
Direction: higher = stronger binding
Endpoint: 7-mer Z-score
Construct (chain): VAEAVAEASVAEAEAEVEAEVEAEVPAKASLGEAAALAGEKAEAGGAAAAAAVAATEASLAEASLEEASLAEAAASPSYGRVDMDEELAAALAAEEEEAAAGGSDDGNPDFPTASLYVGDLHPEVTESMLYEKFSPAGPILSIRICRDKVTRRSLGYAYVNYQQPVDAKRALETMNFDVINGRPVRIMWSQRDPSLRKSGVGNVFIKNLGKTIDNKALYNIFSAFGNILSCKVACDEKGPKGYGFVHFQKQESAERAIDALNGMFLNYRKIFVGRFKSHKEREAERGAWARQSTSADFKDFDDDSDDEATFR
GGGAUCA: 0.234
CCCGAAG: -0.171
GUGUGCC: -0.345
GUAGCUG: -0.148
CUAUGGG: -0.0264
ACGUUGG: -0.0319
ACCCAGA: -0.0246
CCGAAUU: -0.2
ACAGGUA: 0.138
UACCGGG: -0.0174
UCGGUGC: -0.115
ACCAGUC: -0.208
UCUCCCU: -0.322
GUUGGGG: 0.111
AAGGGAU: 0.586
GAGUCUC: -0.4
CCAAUCG: -0.262
AGAAGCC: -0.22
CCCUCAU: -0.362
CACGGCC: -0.108
UCAGGCG: -0.0101

Set 6
Target: Sal-like protein 4, full length isoform A (SALL4, Homo sapiens, UniProt Q9UJQ4, residues 1-1053)
UniProt Q9UJQ4, sequence (whole entry, looked up): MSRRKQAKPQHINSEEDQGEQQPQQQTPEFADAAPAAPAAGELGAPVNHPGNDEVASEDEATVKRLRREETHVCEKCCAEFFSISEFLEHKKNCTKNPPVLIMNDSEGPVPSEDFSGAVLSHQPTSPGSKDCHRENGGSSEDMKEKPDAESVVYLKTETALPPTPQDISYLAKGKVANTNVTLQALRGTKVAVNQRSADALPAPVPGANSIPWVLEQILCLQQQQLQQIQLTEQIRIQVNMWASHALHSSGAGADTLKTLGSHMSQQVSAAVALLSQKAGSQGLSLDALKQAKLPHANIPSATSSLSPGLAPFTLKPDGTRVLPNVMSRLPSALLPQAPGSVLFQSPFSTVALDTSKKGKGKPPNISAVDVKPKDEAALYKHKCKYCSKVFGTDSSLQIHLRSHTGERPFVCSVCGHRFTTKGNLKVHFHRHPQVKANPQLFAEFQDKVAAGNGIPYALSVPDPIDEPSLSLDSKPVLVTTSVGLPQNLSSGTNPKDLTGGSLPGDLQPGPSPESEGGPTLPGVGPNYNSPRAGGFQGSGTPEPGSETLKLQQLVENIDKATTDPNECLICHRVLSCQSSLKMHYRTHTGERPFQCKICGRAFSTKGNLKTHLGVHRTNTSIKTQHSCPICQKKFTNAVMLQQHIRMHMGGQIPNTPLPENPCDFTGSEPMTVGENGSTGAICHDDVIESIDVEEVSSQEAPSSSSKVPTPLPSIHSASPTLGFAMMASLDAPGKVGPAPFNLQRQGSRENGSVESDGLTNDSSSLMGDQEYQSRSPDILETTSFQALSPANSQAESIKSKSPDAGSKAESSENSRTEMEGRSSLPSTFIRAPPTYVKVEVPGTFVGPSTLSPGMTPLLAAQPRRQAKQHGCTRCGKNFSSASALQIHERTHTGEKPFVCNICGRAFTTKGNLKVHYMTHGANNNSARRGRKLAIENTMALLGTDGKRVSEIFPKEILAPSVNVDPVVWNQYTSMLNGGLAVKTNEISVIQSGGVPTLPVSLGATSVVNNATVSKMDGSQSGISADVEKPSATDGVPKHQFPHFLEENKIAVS
Method: universal PBM
Molecule type: double-stranded DNA, one strand shown
Matrix: in vitro
Tested at: 600 nM
Notes: 8-mer, flanks averaged, mean of replicates
Direction: higher = stronger binding
Endpoint: E-score
AGGCCGAA: -0.172
GTTTAAAA: 0.17
AATTGTCA: 0.257
ACATCCTG: 0.158
AGGTGTGG: -0.239
AGGTTCTC: -0.161
AGACCTGA: -0.0089
AAGGGTCC: -0.253
CAGCCGGA: -0.158
AGCTAAAA: 0.121
CGCTTTAG: -0.0919
GTTAGCTA: -0.0867
CGATCACG: -0.106
ATGGGACC: -0.19
CATCCCAG: -0.137
AGTAGTGA: 0.118
CCGACCGG: -0.387
ATAATCGG: 0.183
TGAAGTAA: 0.127
GAGGCATC: -0.154
ACCAACGG: -0.285
AGATTTAG: 0.0715
GTAGGATA: -0.0233
CGAGAACC: -0.132
ACACTTCC: -0.058

Single results of other studies
STTRRRLFVENDS — score relative, wild type, peptide (human cyclin E2; cyclin docking binding, deep mutational scanning; peptide, yeast cyclin E2-Cln2 system; direction not given): 0

For quick reference, copied from above (set 3):
CCUGUGCUACACAUCGUAUGUACCGAAUCGGUUUUUUUGGGUUUUUUUGGGUUUUUUUGGAAAGUAUUAUGUUACGCCGUUCGGAUCUGC: -0.771
CCUCAAGUCCUGUGCUACACAUCGUAUGUACCGAAUCGGAGGGGAGGAGGGGAAAGUAUUAUGUUACGCCGUUCGGAUCUGCACUUCCAG: 0.443
ACCAUGCAGGUGGGCAUCUUUGGGAAGUGGGGCAAGGGGGGGAUAGGGAGGCGGGUAACACUUUGGGAACAGGUGGUCCCAGGUCGUUUC: 1.11
GGUGUUGCUGGAAGAAGCCAAGGAUUUGCUCUCUGACUGGCUGGAUUCUACACUUGGCUGUGAUGUCACUGACAAUUCCAUCUUCUCCAA: 0.518
CACAGACAACACGCACCCACACAGACACAGAGGGAAGGGGUUGGGAUGGGGACAGGGUGCACAGCAAAACGGGGUAGGACCCCAGCCCCU: 1.97
UGGCCCGCCGUCCUGAGGAAGCUGAGGUUCACUGCGGUGCCCAAGAACCACCAGGCGGUCCGGAACCCGUGAGCGGCUGCCAGGGGCUCU: 0.405
CAAGUCCUGUGCUACACAUCGUAUGUACCGAAUCGGGUUUUGGGUUUUGGUUUUGGAAAGUAUUAUGUUACGCCGUUCGGAUCUGCACUU: -1.04
AAGUCCUGUGCUACACAUCGUAUGUACCGAAUCGGAAAGGUUUUUUUGGAAAAAGGAAAGUAUUAUGUUACGCCGUUCGGAUCUGCACUU: -1.61
UCAAGUCCUGUGCUACACAUCGUAUGUACCGAAUCGGGCCCGGCCCGGCCCGGGAAAGUAUUAUGUUACGCCGUUCGGAUCUGCACUUCC: -0.666
UGGGAGGUGGAUUUUGUUUAUUUUUUUAGCUCAUUUCCAGGGGUGGGAAUUUUUUUUUCAUAUGUGUCAUGAAUAAAGUUGUUUUUGAAA: 0.0604
CCUGUGCUACACAUCGUAUGUACCGAAUCGGCCCCCCCGGGGCCCCCCCGGCCCCCCCGGAAAGUAUUAUGUUACGCCGUUCGGAUCUGC: -0.203
CCUGUGCUACACAUCGUAUGUACCGAAUCGUGUGUGUGUGUGUGUGUGUGUGUGUGUGUGUAAAGUAUUAUGUUACGCCGUUCGGAUCUG: 0.961
UCAAGUCCUGUGCUACACAUCGUAUGUACCGAAUCGGUUUUUGGAAAAAGGUGGAAAGUAUUAUGUUACGCCGUUCGGAUCUGCACUUCC: -0.749
